{"data": "Assay results pooled from the literature", "note": "A part holds a random share of what one study measured. “And” joins repeats or separate records; there may be more than shown."}
{"data": "Series 1", "cell line": "normal-adjacent epithelium patient-derived organoids sample E", "technique": "CellTiter-Glo", "tested at": "1 µM", "reference": "DMSO"}
{"SMILES": "CCC(=NO)C(C)=Cc1ccc(F)c(C)c1", "viability": "114% and 104%"}
{"SMILES": "Cn1cc(-c2ccc3occ(-c4cccc(-c5ccncc5)c4)c3n2)cn1", "viability": "82.7%"}
{"SMILES": "COc1cccc2c1C(=O)c1c(O)c3c(c(O)c1C2=O)C[C@@](O)(C(=O)CO)C[C@@H]3O[C@H]1C[C@H](N)[C@H](O)[C@H](C)O1", "viability": "35.8%"}
{"SMILES": "CCOc1cn(-c2ccc(F)cc2C)nc1C(=O)Nc1ccc(Oc2ccnc3cc(OC)c(OC)cc23)c(F)c1", "viability": "65.3% and 80.2%"}
{"SMILES": "CN(C)C(=O)Cn1cc(-c2ccc(-c3nnc4ccccn34)cc2)cn1", "viability": "99.7% and 86.6%"}
{"SMILES": "CC(=O)NCC(=O)N1[C@@H]2CC[C@H]1c1ccc(Nc3ncc(C(F)(F)F)c(NC4CCC4)n3)cc12", "viability": "23.7% and 28.6%"}
{"SMILES": "O=C(Nc1cccnn1)N1CC(CC=Cc2cncc(Oc3ccc(C(F)(F)F)cn3)n2)C1", "viability": "108% and 103%"}
{"data": "Series 2", "target": "PABPC1L2, full length, GST fusion (mouse, UniProt A0ABA7IW68)", "technique": "RNAcompete", "molecule type": "RNA", "matrix": "in vitro", "tested at": "20 nM", "notes": "7-mer, probes averaged, single round", "reference": "mean of 7-mers", "reading": "higher = stronger binding", "Residues (chain)": "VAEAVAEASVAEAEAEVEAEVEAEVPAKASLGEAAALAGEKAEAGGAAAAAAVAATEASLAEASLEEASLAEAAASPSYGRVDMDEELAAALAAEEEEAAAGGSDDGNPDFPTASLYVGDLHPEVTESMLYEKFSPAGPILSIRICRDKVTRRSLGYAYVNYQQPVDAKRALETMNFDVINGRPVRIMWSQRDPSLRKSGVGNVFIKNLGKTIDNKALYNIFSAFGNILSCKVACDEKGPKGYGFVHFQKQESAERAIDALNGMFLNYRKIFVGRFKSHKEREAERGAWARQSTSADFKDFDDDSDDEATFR"}
{"Sequence": "AGUUCCG", "7-mer Z-score": -0.237}
{"Sequence": "GACUGGA", "7-mer Z-score": 0.0895}
{"Sequence": "GGUUACU", "7-mer Z-score": -0.117}
{"Sequence": "GCACCGC", "7-mer Z-score": -0.133}
{"Sequence": "ACGGGCC", "7-mer Z-score": 0.0315}
{"Sequence": "CCGAUAG", "7-mer Z-score": -0.173}
{"Sequence": "CUCGGUA", "7-mer Z-score": -0.0627}
{"Sequence": "AGUGGUU", "7-mer Z-score": -0.195}
{"data": "Series 3", "target": "Prothrombin, mature alpha-thrombin (F2, Homo sapiens, UniProt P00734)", "technique": "aptamer microarray, sandwich", "molecule type": "DNA with 2'F-ANA", "matrix": "in vitro", "tested at": "200 nM", "notes": "whole 15-mer aptamer, many near background", "with": "Cy3 exosite-II aptamer, 400 nM", "reading": "higher = stronger binding", "sequence": "GGTTGGTGTGGTTGG"}
{"Modification": "2'F-ANA at 2 3 4 6 9 10 11 12 14 15", "mean fluorescence intensity [a.u.]": 160}
{"Modification": "2'F-ANA at 1 4 7 11 12 13", "mean fluorescence intensity [a.u.]": 163}
{"Modification": "2'F-ANA at 2 3 5 6 9 12 15", "mean fluorescence intensity [a.u.]": 179}
{"Modification": "2'F-ANA at 2 3 5 9 10 11 13 14 15", "mean fluorescence intensity [a.u.]": 79}
{"Modification": "2'F-ANA at 1 3 14", "mean fluorescence intensity [a.u.]": 93}
{"Modification": "2'F-ANA at 2 3 4 5 8 9 13 14 15", "mean fluorescence intensity [a.u.]": 50.1}
{"Modification": "2'F-ANA at 4 5 6 10 12", "mean fluorescence intensity [a.u.]": 51.3}
{"Modification": "2'F-ANA at 1 3 4 5 6 10 14 15", "mean fluorescence intensity [a.u.]": 48.7}
{"data": "Series 4", "target": "Cyclin-dependent kinase 1, with cyclin A (CDK1, Homo sapiens, UniProt P06493)", "read-out": "enzyme activity", "action": "inhibitor", "tested at": "0.5 µM", "reference": "control", "sequence of UniProt P06493 (whole entry, looked up)": "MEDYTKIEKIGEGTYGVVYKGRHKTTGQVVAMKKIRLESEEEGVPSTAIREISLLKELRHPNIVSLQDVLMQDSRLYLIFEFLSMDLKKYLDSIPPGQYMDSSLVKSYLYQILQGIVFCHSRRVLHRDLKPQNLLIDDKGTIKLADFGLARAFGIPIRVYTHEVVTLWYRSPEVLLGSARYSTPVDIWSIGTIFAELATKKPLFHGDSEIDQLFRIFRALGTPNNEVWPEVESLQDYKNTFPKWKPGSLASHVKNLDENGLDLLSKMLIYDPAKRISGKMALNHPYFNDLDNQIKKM"}
{"Structure (SMILES)": "O=C1NC(=O)C(c2cn(CCCO)c3ncccc23)=C1c1cnccn1", "remaining activity [%]": 91.8}
{"Structure (SMILES)": "N#CC(C#N)=C(N)/C(C#N)=C/c1ccc(O)cc1", "remaining activity [%]": 90.6}
{"Structure (SMILES)": "CN(C)c1ccc(C=C2C(=O)Nc3ccccc32)cc1", "remaining activity [%]": 96.9}
{"Structure (SMILES)": "COc1ccc(OC)c2c(=S)c3ccccc3[nH]c12", "remaining activity [%]": 96.2}
{"Structure (SMILES)": "COc1ccc(C(=O)Nc2sc3c(c2C(N)=O)CCCC3)cc1OC", "remaining activity [%]": 105}
{"Structure (SMILES)": "CNC(=O)c1cc(Oc2ccc(NC(=O)Nc3ccc(Cl)c(C(F)(F)F)c3)cc2)ccn1", "remaining activity [%]": 100}
{"Structure (SMILES)": "O=S(=O)(c1cccc2cnccc12)N1CCCNCC1", "remaining activity [%]": 98.6}
{"Structure (SMILES)": "C#Cc1cccc(Nc2ncnc3cc(OCCOC)c(OCCOC)cc23)c1", "remaining activity [%]": 99.6}
{"Structure (SMILES)": "COc1cc2nccc(Oc3ccc(NC(=S)NC(=O)c4ccccc4C)cc3)c2cc1OC", "remaining activity [%]": 91.6}
{"Structure (SMILES)": "Cn1c2ccccc2c2c3c(c4c5ccccc5n(CCC#N)c4c21)CNC3=O", "remaining activity [%]": 55.5}
{"Structure (SMILES)": "Nc1ncnc2n[nH]c(Nc3ccc(F)cc3)c12", "remaining activity [%]": 93}
{"Structure (SMILES)": "O=c1c2ccccc2[nH]c(=S)n1CCN1CCC(=C(c2ccc(F)cc2)c2ccc(F)cc2)CC1", "remaining activity [%]": 96.8}
{"Structure (SMILES)": "Oc1ccc(-c2nc(-c3ccncc3)c(-c3ccc(F)cc3)[nH]2)cc1", "remaining activity [%]": 90.9}
{"Structure (SMILES)": "CO[C@H]1C[C@@H]2CC[C@@H](C)[C@@](O)(O2)C(=O)C(=O)N2CCCC[C@H]2C(=O)O[C@H]([C@H](C)C[C@@H]2CC[C@@H](O)[C@H](OC)C2)CC(=O)[C@H](C)/C=C(\\C)[C@@H](O)[C@@H](OC)C(=O)[C@H](C)C[C@H](C)/C=C/C=C/C=C/1C", "remaining activity [%]": 91.9}
{"note": "For quick reference, copied from above (series 2):"}
{"Sequence": "GACUGGA", "7-mer Z-score": 0.0895}
{"Sequence": "ACGGGCC", "7-mer Z-score": 0.0315}
